# Experimental data collected from several papers.
# Each numbered part is a random draw from the data of one study; scales do not carry over between parts.

# Series 1 — method: RNA Bind-n-Seq; form: RNA; matrix: in vitro; tested at: 1 µM; setting: whole 134-nt RNA, ends assumed; with: 150 mM KCl; relative to: input library; direction: higher = stronger binding
# Target: Ras GTPase-activating protein-binding protein 1, RRM domain (G3BP1, Homo sapiens, UniProt Q13283)
# UniProt Q13283, sequence (whole entry, looked up): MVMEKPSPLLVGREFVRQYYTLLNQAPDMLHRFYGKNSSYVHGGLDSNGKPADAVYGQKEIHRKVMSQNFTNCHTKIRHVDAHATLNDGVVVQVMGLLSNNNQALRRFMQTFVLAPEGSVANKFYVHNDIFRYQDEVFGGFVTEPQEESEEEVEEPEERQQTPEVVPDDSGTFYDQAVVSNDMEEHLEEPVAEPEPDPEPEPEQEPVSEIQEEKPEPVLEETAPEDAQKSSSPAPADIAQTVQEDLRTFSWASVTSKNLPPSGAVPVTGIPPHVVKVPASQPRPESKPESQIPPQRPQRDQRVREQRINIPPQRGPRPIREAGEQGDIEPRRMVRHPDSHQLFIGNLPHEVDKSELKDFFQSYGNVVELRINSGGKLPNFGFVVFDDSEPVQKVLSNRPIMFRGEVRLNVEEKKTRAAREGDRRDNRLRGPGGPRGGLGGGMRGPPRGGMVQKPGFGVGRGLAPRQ
# Constant ends, left off below: GGGAGUUCUACAGUCCGACGAUC … UGGAAUUCUCGGGUGUCAAGG
Oligonucleotide,log2 enrichment
UGGCCCUGGUAGCAUGCGGGGAGGAAGAGGUGGCCUCAUGGAUCGUGGUGGUCCCGGUGGAAUGUUCAGAGGUGGCCGUGGUGGAGACAG,1.07
UCCUCAAGUCCUGUGCUACACAUCGUAUGUACCGAAUCGGUGGUGGGGUGGAAAGUAUUAUGUUACGCCGUUCGGAUCUGCACUUCCAGC,-0.196
GUCCUGUGCUACACAUCGUAUGUACCGAAUCGGGAAAAAGGGGAAAAAGGAAAAAGGGGAAAGUAUUAUGUUACGCCGUUCGGAUCUGCA,0.0701
AAAAUAAGCCUAAGAAAGAAUUAAUUAAAGUUCUGAUUCAGAGGGGAUAUGAUUCGGAUCCUGUGAAGGCCUGGAAAGAAGCCCAGCAAA,-0.213
GUCCUGUGCUACACAUCGUAUGUACCGAAUCGGGAAAAAGGGGAAAAAGGGAAAAAGGGAAAGUAUUAUGUUACGCCGUUCGGAUCUGCA,0.188
UUUCCAAGAAGUGCACUGAAAAUGACAUCCGAGUCAUGUUCUCUUCGUUUGGACAGAUUGAAGAAUGCCGGAUAUUGCGGGGACCUGAUG,-0.155
CUCAAGUCCUGUGCUACACAUCGUAUGUACCGAAUCGGGUUGGGGUUGGUUGGAAAGUAUUAUGUUACGCCGUUCGGAUCUGCACUUCCA,-0.268
ACCAUGCAGGUGGGCAUCUUUGGGAAGUGGGGCAAGGGGGGGAUAGGGAGGGGGGUAACACUUUGGGAACAGGUGGCCCCAGGUCGUUUC,0.342
CACAGCCAACACGCACCCACACAGACACAGAGGGAAGGGGUUGGGAUGGGGACAGGGUGCACAGCAGGGCGGGGUAGGACCCCAGCCCCU,-0.103
CAAGUCCUGUGCUACACAUCGUAUGUACCGAAUCGGGUUUGGGGUUUGGUUUGGGAAAGUAUUAUGUUACGCCGUUCGGAUCUGCACUUC,-0.396
UCAAGUCCUGUGCUACACAUCGUAUGUACCGAAUCGGAAAAAGGUGGUUUUUGGAAAGUAUUAUGUUACGCCGUUCGGAUCUGCACUUCC,-0.159
UGGGAGGUGGAUUUUGUUUAUUUUUUUAGCUCAUUUCCAGGGGUGGGAAUUUUUUUUUAAUAUGUGUUAUGAAUAAAGUUGUUUUUGAAA,1.69
ACCAUGCAGGUGGGCAUCUUUGGGAAGUGGCGCAAGGGGGGGAUAGGGAGGGGGGUAACACUUUGGGAACAGGUGGUCCCAGGUCGUUUC,-0.504
UCCUGUGCUACACAUCGUAUGUACCGAAUCGGCCCCCCGGGCCCCCCGGCCCCCCGGGGAAAGUAUUAUGUUACGCCGUUCGGAUCUGCA,-0.394

# Series 2 — method: protein binding microarray; form: double-stranded DNA, one strand shown; matrix: in vitro; tested at: not given; relative to: not given; direction: higher = stronger binding
# Target: Histone acetyltransferase KAT6A, winged helix 2, GST fusion (KAT6A, Homo sapiens, UniProt Q92794, residues 85-181)
# Setting: 8-mer, flanks averaged, mean of 2 arrays, mostly near background
# Residues (chain): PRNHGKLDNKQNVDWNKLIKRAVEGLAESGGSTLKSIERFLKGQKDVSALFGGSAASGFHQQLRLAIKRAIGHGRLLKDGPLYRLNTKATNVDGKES
Oligonucleotide,E-score
CGTGCGAA,0.0452
AAGAGCAA,0.202
GTGTTGAA,-0.0622
AAACACCA,-0.111
ATGCATGG,0.00587
ACAGCCAG,0.0459
AGTGCTAC,-0.0781
GCTTCACA,-0.128
AAGGACAA,-0.0114
CAATAACC,0.0546
ACACGACG,-0.0694
GGAAACGA,0.0651
ACAAACAA,0.0437
AAGGTATT,-0.238
CTGCGCAA,0.0544
CTGATGAC,-0.0955
GCATGTAC,-0.257
AGACACTA,0.098
CATTTGCG,0.0598

# Series 3 — method: RNA Bind-n-Seq; form: RNA; matrix: in vitro; tested at: 365 nM; relative to: no-protein control; direction: higher = stronger binding
# Target: RNA binding protein fox-1 homolog 2, RRM domain, GST-SBP tag (RBFOX2, Homo sapiens, UniProt O43251-10, residues 100-194)
# Setting: natural RNA segment, single round, ends assumed
# Constant ends, left off below: GGGAGUUCUACAGUCCGACGAUC … UGGAAUUCUCGGGUGCCAA
# Target sequence (chain): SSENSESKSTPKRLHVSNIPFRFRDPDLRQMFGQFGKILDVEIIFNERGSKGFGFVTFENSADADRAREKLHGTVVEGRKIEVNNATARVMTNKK
Oligonucleotide,RBNS enrichment (R)
AAAUGCCCAGUCACUGCCCUUUCUAUUGGUGGAGAACAAUCGCAAAAUCUGUGUAUAAUUAGCAAUAACAGAACUAAACCAUUGUUUAGUUGCUAAUCAUAUGUUGCUUU,0.297
AAAAACUAAUUGUGAUUUCUAGUCUUGCAAAGCUGUAUGUAGUUAGAUGAUGUGACAACCUCUAAUAUUUAUCUAAUAAAUAUGUAUUCAGAUGAAACCUGUAUAUUAGG,0.817
UCGGAGCAUGGUGUUUUCAUUCCCCCUUCCUAGUGAACCACAGGUUUUAGCAUUGUCUUGUUCUGUCCCUUCCACUUCUAACUCCACUGGCUCCAUGAUUCUCUGAGUGG,9.63
CAUUCAGAAAGCAUGCUGUGUGGGGGCUGCUUCUCAGGAGGCCAGGCCCUUCUGAGCGGAACCGUCCUGGAGAGAGCCUGCCCUCGUUUCCAGGCUGCAGCCGUAACGCA,4.47
GCCCCUGAGAGGUGGGGGCCUCUCCAGGGCACAUCUGGAGUUCUUCUCCAGCUUACCCUAGGGUGACCAAGUAGGGCCUGUCACACCAGGGUGGCGCAGCUUUCUGUGUG,0.528
UGAAGAGAUGGCUCAGUGGUUCAGAGCACUUACUCCUCAGGUGUAAGACCUGGGUUUGGUUCUCAGCACCCAUGUGGCAACUUACAACCAUCCAUAGCUCCAGAUCCAGG,0.315
UGUGGAGGUGACUCACAGCAGACUGACAGUGGUCAGGCUGAGCUUUCUGCUAAGGUGGUGAGGUCGCCAACACUGGCAUGUCUCGGUAGUGGUUUGGGCAAAUUUCUGCA,3.82
UGGUCCUGGAACUCUUCACCAGGGAGGGAGCCCUGCGGGGGCCGCAGCUUUGUGGAGGGAGCCGCCGUGCUUCUGUCACCUGCUCCCUUUCUUGCGUCUCCCUGUGAUGG,0.308
AAAGAGUCUAAAGGGGCCGGGAGAAGCAUGAGCGAGGGGCAGAUUCUAGUCGGGAGCCCAUGCCCUGGAAAUCCAUCUUUCUUCAUCUUUCCCAUUGACCACUUUGGGUU,0.468
UGCCAUUGCAUCAAACUCUAUGGCGUGGCCUUAUCGAUUGCAGUGGGAAGUUGUUGAAGACUUGAAGACGUGAUUCCUGCUCCAAUCAUCCCUUCUUGCUCCUCUUUGUG,1.11
AGAUGCAGAAUGGGAAAGACAGAGGUUAGCAGAGGAGCCGGACACAGAGGAAGCUCAGGCACAGAGGACGAGGAGCAAGCUGGCGCCGACAUGGCGAAGGCAAGGUCUUC,1.34
CAAGUUUUUCUAAAUAAAUGUAACUUUUCACAAGAGUCAACAUUAAAAAAUAAAUUAUUUAAGAACAGAUUGUGAUGUUUUCAAUUGAUGAAUGCUGAAAGAAAAAGAAA,1.25

# Series 4 — method: RNA Bind-n-Seq; form: RNA; matrix: in vitro; tested at: not given; relative to: input RNA pool; direction: higher = stronger binding
# Target: RING finger protein unkempt homolog, zinc fingers 1-6, GST-SBP tag (UNK, Homo sapiens, UniProt Q9C0B0, residues 30-357)
# UniProt Q9C0B0, sequence (30-357, looked up): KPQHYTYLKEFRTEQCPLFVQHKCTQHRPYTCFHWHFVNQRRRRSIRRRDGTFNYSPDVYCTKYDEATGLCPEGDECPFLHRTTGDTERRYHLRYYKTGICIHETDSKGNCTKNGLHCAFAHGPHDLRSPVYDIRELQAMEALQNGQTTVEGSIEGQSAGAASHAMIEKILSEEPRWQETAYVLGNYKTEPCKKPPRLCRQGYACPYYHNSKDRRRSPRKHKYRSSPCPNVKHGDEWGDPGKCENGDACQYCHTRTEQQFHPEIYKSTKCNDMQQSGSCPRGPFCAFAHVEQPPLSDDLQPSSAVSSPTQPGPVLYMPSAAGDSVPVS
# Setting: RNA with constant flanks, human-mouse chimeric sites, ends assumed
# Constant ends, left off below: GGGAGUUCUACAGUCCGACGAUC … CAACAGAGGAUUGAGCAUCA
Oligonucleotide,bound/input enrichment
GGGGAGAAACCUUACGAGUGUGUGCAGUGUGGGAAAUCCUACAGUCAAAGCUCAAAUCUCUUCAGACAUCAGAGAAGACACAAUGCAGAAAAACUUUUGAAUGUUGUGAAGGUUUAAGAA,0.134 ratio
AACUUUGUGCAUCGGUUUCCCUUUGUAGCUGUUUCAAUUGGCUUCCUUGUGAAUAAAGAGAUGGAGUUUGGAGUUGUGUACAGCUGUGUGGAAGAUAAGAUGUACACCGGCAGGAAAGGG,0.458 ratio
GAGUCGAUUAUGGAAACAACAAUUCGUUAUCUUGCAGCCUCAGUGUUCACUUGCUUGGCGAUAGCAUUGGGGUUUUAUAGGUUCUGGAAGGAGAACUUUAAUGCUCACUGCCGCUGCUGC,0.228 ratio
ACCUCCCCCUCCCGCCUCACCCCACCCCCGCUUUUUGGAAAGUUUUUGGCGUUUCUUUUCCUUCCCCAUACAAAGUGAUUACAGUUUAGAGUCUAUGUGGGGCUUGAAGGGCUUGACGGA,0.77 ratio
CGGAGCCCUCCUCUCCCACAGGCCCAAGAUAUAACCCACCAGUGCCUUCUGUCUGCUCGUUAGCUUUGUCAAUCACGCCUGUCCUCUCACGCCCACACCAAGUGCCCAAAGUGGGGAGGG,3.04 ratio
GGUGGGGUGGUCAUUGCCGUUUGAGCUGCUGAUUUUCAUGAGUCGCCUUCAAAACUCUCGUGUAGGGUUGACAAUGUGGGGGGGUGGGAAAUCUAGCUAUUUUUUUUAUUUUCAAGUCCA,170 ratio
AACUUCGUGCAUCGGUUUCCCUUUGUAGCUGUUUCAAUUGGCUUUGCUGUGAAUAAAAAGAUAGAAUUUGGAAUUGUGUACAGCUGUGUGGAAGAUAAGAUGUACACCGGCAGGAAAGGG,5.12 ratio
UCGGAUGCUGUGCUGGGUCACUUUUCAUAUCCAGAUCCUUCCCAGUGGACAGAUGAAGAACUGGGAAUCCCUCCUGAUGACGAGGACUGAAGGUGUAAACUCUCUGGACGAGUAGGAGCA,0.457 ratio
CAGCGCCGAGGCCGCGGUUUCCCCCUGGGCCUCCCCAGCAGCAGCCAUGGGCAUCAAAUUUUUAGAAGUUAUCAAACCUUUCUGUGCAGUUCUACCAGAAAUUCAGAAACCGGAAAGGAA,2.31 ratio
CUGAAAAACACAGAUAUCAAAGUUGUUGACUUUGGAAGUGCAACGUAUGACGACGAACAUCAUAGUACUUUGGUGUCUACCCGGCACUACAGAGCUCCCGAGGUCAUUUUGGCUUUAGGU,0.197 ratio
ACUCAGAGAUCCACCUCCCAAAGUGCUCUGGAGCUCUUCUGAUAUUACACACCUAACUUGAUGGAUAUAUAUUUUUUUUAAUAUGAAUCUUCCUGUUCGUCCAGGGAAGAAAGAUUUGUU,1.21 ratio

# Excerpt of the above (series 3):
Oligonucleotide,RBNS enrichment (R)
GCCCCUGAGAGGUGGGGGCCUCUCCAGGGCACAUCUGGAGUUCUUCUCCAGCUUACCCUAGGGUGACCAAGUAGGGCCUGUCACACCAGGGUGGCGCAGCUUUCUGUGUG,0.528
UGAAGAGAUGGCUCAGUGGUUCAGAGCACUUACUCCUCAGGUGUAAGACCUGGGUUUGGUUCUCAGCACCCAUGUGGCAACUUACAACCAUCCAUAGCUCCAGAUCCAGG,0.315
UGUGGAGGUGACUCACAGCAGACUGACAGUGGUCAGGCUGAGCUUUCUGCUAAGGUGGUGAGGUCGCCAACACUGGCAUGUCUCGGUAGUGGUUUGGGCAAAUUUCUGCA,3.82
UGGUCCUGGAACUCUUCACCAGGGAGGGAGCCCUGCGGGGGCCGCAGCUUUGUGGAGGGAGCCGCCGUGCUUCUGUCACCUGCUCCCUUUCUUGCGUCUCCCUGUGAUGG,0.308
AAAGAGUCUAAAGGGGCCGGGAGAAGCAUGAGCGAGGGGCAGAUUCUAGUCGGGAGCCCAUGCCCUGGAAAUCCAUCUUUCUUCAUCUUUCCCAUUGACCACUUUGGGUU,0.468
UGCCAUUGCAUCAAACUCUAUGGCGUGGCCUUAUCGAUUGCAGUGGGAAGUUGUUGAAGACUUGAAGACGUGAUUCCUGCUCCAAUCAUCCCUUCUUGCUCCUCUUUGUG,1.11
AGAUGCAGAAUGGGAAAGACAGAGGUUAGCAGAGGAGCCGGACACAGAGGAAGCUCAGGCACAGAGGACGAGGAGCAAGCUGGCGCCGACAUGGCGAAGGCAAGGUCUUC,1.34
